Published values of several laboratories.
Parts stem from different laboratories: compare values within a part only. Values joined by “and” are separate records of one study, mostly repeats; a detail may differ. Positions count from the first letter of the parent shown.
Chain of UniProt P06493 (whole entry, looked up): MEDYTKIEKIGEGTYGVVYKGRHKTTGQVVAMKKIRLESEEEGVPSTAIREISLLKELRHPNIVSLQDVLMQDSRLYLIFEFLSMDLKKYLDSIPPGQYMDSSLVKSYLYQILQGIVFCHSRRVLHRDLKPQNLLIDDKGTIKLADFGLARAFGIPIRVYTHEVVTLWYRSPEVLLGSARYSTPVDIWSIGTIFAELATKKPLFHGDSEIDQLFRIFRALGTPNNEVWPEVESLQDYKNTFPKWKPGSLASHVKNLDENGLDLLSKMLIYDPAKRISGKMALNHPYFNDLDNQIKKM
Chain of UniProt P42681 (whole entry, looked up): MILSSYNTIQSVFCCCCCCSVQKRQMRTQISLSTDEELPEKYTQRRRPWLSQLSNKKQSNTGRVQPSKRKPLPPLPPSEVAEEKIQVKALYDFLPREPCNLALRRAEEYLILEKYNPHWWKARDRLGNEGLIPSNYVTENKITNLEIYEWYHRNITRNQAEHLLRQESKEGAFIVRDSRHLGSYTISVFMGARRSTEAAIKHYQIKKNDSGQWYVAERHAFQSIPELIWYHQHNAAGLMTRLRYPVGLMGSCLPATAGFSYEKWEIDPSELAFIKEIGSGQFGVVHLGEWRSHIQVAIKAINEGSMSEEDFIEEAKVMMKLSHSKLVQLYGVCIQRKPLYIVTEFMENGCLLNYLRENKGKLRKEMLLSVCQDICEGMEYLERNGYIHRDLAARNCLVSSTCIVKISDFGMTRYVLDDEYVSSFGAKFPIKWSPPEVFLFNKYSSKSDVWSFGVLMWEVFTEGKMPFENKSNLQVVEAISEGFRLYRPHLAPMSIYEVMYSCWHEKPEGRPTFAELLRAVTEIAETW
Chain of UniProt Q13237 (whole entry, looked up): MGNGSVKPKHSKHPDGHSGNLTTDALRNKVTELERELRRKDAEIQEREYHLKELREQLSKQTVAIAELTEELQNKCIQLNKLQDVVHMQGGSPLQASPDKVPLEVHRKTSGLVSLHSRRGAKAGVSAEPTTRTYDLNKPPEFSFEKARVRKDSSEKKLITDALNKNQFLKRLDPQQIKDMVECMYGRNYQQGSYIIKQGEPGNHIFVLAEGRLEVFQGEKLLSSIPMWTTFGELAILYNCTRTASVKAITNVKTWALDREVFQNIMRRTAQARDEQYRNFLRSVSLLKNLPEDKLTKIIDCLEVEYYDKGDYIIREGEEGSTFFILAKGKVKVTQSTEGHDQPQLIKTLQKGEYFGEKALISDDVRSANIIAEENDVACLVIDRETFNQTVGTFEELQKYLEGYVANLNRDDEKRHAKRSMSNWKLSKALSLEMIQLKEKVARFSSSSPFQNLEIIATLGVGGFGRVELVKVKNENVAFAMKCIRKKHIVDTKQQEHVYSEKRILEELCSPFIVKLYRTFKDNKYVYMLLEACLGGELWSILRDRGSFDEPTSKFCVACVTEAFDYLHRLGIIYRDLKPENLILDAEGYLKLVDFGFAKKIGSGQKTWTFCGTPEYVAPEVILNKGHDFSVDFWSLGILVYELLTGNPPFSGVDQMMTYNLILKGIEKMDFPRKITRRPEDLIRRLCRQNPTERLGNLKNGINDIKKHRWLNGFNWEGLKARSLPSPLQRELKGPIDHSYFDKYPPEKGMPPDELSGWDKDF
Chain of UniProt P50406 (whole entry, looked up): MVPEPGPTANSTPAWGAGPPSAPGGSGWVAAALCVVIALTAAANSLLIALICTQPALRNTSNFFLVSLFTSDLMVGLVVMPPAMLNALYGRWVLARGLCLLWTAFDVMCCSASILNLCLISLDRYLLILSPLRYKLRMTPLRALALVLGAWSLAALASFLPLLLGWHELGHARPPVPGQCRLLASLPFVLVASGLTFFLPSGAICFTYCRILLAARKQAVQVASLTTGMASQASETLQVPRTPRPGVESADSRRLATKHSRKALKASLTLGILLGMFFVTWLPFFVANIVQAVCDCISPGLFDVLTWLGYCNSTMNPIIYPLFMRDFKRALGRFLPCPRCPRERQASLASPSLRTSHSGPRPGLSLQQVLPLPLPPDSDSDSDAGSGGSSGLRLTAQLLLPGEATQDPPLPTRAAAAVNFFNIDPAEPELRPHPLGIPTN
Chain of UniProt Q9Y5S2 (whole entry, looked up): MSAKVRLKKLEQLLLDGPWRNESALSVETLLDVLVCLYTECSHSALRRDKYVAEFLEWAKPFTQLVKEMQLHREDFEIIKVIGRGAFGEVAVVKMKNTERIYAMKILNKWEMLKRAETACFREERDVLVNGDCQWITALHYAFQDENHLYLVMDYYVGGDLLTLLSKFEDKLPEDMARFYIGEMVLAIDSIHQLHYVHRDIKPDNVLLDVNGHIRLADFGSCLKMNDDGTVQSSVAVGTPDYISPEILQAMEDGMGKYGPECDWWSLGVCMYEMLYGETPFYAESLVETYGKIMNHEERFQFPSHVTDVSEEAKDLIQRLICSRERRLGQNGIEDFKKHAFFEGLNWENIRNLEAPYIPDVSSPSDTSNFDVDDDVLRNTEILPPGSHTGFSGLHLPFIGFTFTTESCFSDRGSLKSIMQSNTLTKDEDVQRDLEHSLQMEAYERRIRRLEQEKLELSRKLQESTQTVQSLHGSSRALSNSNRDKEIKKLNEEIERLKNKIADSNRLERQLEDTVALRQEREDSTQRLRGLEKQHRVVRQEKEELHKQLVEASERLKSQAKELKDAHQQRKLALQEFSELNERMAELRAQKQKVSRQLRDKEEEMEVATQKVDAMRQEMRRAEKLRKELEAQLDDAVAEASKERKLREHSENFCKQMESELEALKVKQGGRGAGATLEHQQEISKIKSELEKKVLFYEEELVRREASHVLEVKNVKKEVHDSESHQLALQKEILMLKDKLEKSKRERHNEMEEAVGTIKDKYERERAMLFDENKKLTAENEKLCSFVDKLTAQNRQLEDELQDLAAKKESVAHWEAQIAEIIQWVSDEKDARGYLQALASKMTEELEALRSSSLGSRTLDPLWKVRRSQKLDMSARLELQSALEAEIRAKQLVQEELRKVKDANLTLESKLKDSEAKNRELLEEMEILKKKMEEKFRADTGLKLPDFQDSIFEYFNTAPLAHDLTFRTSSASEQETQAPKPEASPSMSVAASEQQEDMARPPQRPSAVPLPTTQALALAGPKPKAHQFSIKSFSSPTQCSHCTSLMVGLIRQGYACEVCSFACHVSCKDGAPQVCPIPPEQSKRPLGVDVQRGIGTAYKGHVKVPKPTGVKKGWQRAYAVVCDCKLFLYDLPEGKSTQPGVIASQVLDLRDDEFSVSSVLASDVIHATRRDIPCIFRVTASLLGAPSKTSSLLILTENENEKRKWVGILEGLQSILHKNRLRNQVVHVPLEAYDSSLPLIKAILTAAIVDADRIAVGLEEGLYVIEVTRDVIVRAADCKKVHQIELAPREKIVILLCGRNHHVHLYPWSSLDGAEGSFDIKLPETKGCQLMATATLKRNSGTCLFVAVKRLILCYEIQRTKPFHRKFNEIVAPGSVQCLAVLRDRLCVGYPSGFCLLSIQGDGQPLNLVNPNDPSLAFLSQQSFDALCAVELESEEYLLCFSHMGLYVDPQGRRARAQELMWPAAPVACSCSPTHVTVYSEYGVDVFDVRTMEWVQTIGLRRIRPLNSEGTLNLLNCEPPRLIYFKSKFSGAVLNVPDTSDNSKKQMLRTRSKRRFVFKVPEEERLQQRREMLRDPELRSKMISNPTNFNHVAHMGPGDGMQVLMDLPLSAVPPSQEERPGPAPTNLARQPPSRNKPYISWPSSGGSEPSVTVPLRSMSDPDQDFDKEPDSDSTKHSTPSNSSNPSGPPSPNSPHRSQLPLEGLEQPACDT
Chain of UniProt P32298 (whole entry, looked up): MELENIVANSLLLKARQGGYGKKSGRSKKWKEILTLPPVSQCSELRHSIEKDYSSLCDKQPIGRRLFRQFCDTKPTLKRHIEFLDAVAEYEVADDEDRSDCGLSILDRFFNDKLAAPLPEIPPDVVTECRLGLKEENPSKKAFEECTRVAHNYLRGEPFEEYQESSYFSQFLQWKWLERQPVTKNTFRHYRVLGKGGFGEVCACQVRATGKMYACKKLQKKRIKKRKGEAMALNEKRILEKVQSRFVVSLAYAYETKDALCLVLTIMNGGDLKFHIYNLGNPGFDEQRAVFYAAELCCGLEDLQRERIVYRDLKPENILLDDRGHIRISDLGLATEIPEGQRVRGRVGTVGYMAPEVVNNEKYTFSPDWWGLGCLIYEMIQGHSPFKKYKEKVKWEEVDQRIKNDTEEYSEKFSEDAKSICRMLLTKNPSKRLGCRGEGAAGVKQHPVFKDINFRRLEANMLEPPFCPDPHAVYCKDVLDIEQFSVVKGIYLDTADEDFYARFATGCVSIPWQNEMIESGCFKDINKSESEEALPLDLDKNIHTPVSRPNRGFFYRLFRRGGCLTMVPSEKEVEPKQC
Chain of UniProt Q9Y5N1 (whole entry, looked up): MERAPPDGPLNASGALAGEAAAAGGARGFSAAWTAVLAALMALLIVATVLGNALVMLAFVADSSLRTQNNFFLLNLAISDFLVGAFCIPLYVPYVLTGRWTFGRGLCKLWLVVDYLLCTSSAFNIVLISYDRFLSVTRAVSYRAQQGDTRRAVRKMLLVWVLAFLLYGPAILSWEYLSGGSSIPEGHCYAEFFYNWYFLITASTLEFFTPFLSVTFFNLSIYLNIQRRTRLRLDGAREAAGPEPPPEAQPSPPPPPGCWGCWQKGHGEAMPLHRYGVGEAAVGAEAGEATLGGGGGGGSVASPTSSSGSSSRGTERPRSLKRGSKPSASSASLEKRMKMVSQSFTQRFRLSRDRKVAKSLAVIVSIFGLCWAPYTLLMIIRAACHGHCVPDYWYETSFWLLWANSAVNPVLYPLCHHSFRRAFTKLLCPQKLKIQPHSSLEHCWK

Set 1 — read-out: binding; technique: radioligand binding; tested at: 10 µM; measurement: inhibition
Compound: CCC(=O)N[C@@H]1CC[C@H](C(=O)N(C)c2ccc(-c3nc4ccccc4o3)cc2)C1
target = DRD3 (Homo sapiens, UniProt P35462); value = 4.36%
target = HTR6 (Homo sapiens, UniProt P50406); value = 10.1%
target = HRH3 (Homo sapiens, UniProt Q9Y5N1); value = 1.65%

Set 2 — target: OGT, full length, His-tagged (human); technique: phage display, sequencing; matrix: in vitro; tested at: 1 µg OGT; relative to: input library; direction: higher = stronger binding; measurement: fold enrichment
Setting: single substitutions, 15-mer displayed peptide, unchanged parent 6.14
Starting sequence: peptide; VAYPNSYMPKYQIST; partner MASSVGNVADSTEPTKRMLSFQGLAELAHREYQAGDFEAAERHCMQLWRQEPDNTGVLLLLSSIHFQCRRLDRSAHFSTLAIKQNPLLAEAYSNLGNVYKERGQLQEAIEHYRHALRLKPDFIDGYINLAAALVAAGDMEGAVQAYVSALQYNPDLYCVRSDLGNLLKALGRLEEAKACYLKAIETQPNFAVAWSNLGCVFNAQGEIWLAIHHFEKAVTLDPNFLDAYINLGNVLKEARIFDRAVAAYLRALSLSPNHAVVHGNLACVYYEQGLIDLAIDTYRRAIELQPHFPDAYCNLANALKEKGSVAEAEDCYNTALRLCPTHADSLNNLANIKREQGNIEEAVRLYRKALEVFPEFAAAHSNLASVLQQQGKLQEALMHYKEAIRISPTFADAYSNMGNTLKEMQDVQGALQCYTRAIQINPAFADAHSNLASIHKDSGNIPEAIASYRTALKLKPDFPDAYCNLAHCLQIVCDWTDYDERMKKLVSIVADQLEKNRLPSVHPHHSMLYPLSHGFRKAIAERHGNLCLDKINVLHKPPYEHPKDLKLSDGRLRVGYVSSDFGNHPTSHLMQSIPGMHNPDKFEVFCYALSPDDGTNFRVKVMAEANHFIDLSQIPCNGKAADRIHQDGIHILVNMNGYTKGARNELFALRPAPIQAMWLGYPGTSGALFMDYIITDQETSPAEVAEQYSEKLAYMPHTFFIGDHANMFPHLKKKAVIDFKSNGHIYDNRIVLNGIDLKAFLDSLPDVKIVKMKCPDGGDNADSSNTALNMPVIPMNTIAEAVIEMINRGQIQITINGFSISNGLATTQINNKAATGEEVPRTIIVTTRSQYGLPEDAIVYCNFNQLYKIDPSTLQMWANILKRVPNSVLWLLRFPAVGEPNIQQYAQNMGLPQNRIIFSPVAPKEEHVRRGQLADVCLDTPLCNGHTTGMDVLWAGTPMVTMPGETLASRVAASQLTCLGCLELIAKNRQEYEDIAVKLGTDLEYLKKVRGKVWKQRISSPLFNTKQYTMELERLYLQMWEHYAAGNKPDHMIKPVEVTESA
Change = T15H; value = 2.44 fold
Change = S6N; value = 4.31 fold
Change = Y3M; value = 3.46 fold
Change = S14H; value = 9.58 fold
Change = A2Q; value = 6.02 fold
Change = A2N; value = 6.11 fold
Change = M8G; value = 0.467 fold
Change = K10M; value = 6.16 fold

Set 3 — read-out: enzyme activity; action: inhibitor; tested at: 0.5 µM; relative to: control; measurement: remaining activity
SMILES: CC(=O)O/N=C1/C(c2c(O)[nH]c3cc(Br)ccc23)=Nc2ccccc21
target = AKT2 (Homo sapiens, UniProt P31751); value = 113%
target = GRK4 (Homo sapiens, UniProt P32298); value = 97.6%
target = CDC42BPB (Homo sapiens, UniProt Q9Y5S2); value = 94.7%
target = TXK (Homo sapiens, UniProt P42681); value = 46.4%
target = MAPK1 (Homo sapiens, UniProt P28482); value = 87.9%
target = PRKG2 (Homo sapiens, UniProt Q13237); value = 91.4%
target = MAPK14 (Homo sapiens, UniProt Q16539); value = 99.2%
target = Cyclin-dependent kinase 1, with cyclin A (CDK1, Homo sapiens, UniProt P06493); value = 77.5%
target = CLK3 (Homo sapiens, UniProt P49761); value = 75.1%
target = MARK4 (Homo sapiens, UniProt Q96L34); value = 77.6%
target = MAP2K1 (Homo sapiens, UniProt Q02750); value = 84.9%
target = MINK1 (Homo sapiens, UniProt Q8N4C8); value = 76.1%
target = Cyclin-dependent kinase 9, with cyclin K (CDK9, Homo sapiens, UniProt P50750); value = 64.3%

Other studies, line by line
SMILES = COc1ccc2ccccc2c1-c1cc(CN)on1; test system = mouse, microsomes or S9; conditions = 2 µM, 0.5 h; measurement = remaining compound; value = 57.9%
SMILES = COc1ccc(-c2c(Nc3ccccn3)[nH]c3c(C4=CCCCC4)c(-c4ccccc4)nn3c2=O)cc1; test system = human, plasma; conditions = oral, 50 mg once daily, cycle 1; scale = relative to: trough concentration; measurement = swing; value = 1.02 and 0.534 and 0.495
SMILES = CC(=O)N(CC(=O)N1CCCN(c2ccc(-c3ccccc3)nn2)CC1)C(C)c1ccccc1 (stereo not shown); test system = mouse, microsomes or S9; conditions = 2 µM, 0.5 h; measurement = remaining compound; value = 0.156%
SMILES = CN(C(=O)c1ccn2ncc(-c3ccc(C(N)=O)cc3)c2c1)c1ccc(C#N)cn1; tested on = Cryptosporidium parvum; test = time-kill, one-phase decay fit; test system = nanoluciferase-expressing; conditions = 0.247 µM; measurement = half-life of parasite killing; value = 19.5 h

Excerpt of the above (other studies, line by line):
SMILES = COc1ccc2ccccc2c1-c1cc(CN)on1; test system = mouse, microsomes or S9; conditions = 2 µM, 0.5 h; measurement = remaining compound; value = 57.9%
SMILES = COc1ccc(-c2c(Nc3ccccn3)[nH]c3c(C4=CCCCC4)c(-c4ccccc4)nn3c2=O)cc1; test system = human, plasma; conditions = oral, 50 mg once daily, cycle 1; scale = relative to: trough concentration; measurement = swing; value = 1.02 and 0.534 and 0.495
SMILES = CC(=O)N(CC(=O)N1CCCN(c2ccc(-c3ccccc3)nn2)CC1)C(C)c1ccccc1 (stereo not shown); test system = mouse, microsomes or S9; conditions = 2 µM, 0.5 h; measurement = remaining compound; value = 0.156%
SMILES = CN(C(=O)c1ccn2ncc(-c3ccc(C(N)=O)cc3)c2c1)c1ccc(C#N)cn1; tested on = Cryptosporidium parvum; test = time-kill, one-phase decay fit; test system = nanoluciferase-expressing; conditions = 0.247 µM; measurement = half-life of parasite killing; value = 19.5 h
